# Results collected from several papers.
# Every numbered part comes from another study and shows a few of its results, in no order. Several values in a cell are separate wells, animals, samples, runs or records.
# Chain of UniProt Q06418 (whole entry, looked up): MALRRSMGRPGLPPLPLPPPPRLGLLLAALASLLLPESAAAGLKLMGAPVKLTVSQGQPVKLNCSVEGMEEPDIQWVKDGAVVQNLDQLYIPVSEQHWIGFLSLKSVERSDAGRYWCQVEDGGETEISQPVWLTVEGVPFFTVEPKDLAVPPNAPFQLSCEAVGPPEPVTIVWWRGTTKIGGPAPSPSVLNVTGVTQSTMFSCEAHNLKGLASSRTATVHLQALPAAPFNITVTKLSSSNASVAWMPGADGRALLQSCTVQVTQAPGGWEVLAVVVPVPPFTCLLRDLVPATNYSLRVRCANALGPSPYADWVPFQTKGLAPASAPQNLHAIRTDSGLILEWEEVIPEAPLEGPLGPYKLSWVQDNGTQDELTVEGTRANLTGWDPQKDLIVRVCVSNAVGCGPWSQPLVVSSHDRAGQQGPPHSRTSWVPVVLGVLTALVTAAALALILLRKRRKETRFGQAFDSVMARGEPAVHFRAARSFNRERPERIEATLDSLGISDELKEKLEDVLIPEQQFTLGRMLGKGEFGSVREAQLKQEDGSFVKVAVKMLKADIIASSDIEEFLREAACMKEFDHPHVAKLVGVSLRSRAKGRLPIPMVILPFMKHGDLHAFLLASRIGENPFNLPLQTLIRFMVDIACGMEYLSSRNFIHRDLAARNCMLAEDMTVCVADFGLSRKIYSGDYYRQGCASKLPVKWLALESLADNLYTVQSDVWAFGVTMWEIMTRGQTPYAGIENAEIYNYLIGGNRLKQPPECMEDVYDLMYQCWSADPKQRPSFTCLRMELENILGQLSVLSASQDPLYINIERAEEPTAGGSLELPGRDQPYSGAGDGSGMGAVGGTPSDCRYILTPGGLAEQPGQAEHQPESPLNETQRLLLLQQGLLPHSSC
# Chain of UniProt Q9NRP7 (whole entry, looked up): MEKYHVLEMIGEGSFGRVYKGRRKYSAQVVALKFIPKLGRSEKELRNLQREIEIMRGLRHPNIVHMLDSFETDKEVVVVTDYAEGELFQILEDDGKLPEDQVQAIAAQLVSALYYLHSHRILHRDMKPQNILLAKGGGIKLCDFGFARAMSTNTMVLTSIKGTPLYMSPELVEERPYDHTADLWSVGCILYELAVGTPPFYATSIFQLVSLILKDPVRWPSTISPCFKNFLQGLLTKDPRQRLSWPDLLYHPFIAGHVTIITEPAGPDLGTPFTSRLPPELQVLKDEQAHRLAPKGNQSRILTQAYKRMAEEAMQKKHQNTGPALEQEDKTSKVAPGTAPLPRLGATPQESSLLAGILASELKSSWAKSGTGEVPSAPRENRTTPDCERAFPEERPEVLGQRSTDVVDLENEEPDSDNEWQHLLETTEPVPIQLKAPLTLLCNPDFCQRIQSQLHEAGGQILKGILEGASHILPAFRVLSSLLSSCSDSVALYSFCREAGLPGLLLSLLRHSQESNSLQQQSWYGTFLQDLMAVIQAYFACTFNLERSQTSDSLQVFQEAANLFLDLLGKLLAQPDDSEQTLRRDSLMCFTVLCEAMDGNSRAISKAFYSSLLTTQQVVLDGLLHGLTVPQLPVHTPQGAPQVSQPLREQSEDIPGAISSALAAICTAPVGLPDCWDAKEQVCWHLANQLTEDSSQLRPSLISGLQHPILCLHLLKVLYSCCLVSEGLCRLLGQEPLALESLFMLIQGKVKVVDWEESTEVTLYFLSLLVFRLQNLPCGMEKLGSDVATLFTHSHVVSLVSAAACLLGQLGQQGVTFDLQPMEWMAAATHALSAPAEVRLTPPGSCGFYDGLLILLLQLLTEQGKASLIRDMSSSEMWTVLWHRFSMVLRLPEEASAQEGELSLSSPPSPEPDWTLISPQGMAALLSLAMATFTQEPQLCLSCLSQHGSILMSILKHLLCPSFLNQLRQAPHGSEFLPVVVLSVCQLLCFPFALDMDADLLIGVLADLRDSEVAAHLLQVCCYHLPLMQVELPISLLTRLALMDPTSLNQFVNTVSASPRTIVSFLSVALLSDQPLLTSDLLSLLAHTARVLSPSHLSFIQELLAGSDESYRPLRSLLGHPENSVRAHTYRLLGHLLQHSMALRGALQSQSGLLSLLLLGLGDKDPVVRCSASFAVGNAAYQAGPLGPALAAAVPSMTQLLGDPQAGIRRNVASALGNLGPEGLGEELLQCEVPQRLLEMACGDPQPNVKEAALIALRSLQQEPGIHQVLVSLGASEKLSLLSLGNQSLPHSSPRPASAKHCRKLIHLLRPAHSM
# Chain of UniProt P42336 (whole entry, looked up): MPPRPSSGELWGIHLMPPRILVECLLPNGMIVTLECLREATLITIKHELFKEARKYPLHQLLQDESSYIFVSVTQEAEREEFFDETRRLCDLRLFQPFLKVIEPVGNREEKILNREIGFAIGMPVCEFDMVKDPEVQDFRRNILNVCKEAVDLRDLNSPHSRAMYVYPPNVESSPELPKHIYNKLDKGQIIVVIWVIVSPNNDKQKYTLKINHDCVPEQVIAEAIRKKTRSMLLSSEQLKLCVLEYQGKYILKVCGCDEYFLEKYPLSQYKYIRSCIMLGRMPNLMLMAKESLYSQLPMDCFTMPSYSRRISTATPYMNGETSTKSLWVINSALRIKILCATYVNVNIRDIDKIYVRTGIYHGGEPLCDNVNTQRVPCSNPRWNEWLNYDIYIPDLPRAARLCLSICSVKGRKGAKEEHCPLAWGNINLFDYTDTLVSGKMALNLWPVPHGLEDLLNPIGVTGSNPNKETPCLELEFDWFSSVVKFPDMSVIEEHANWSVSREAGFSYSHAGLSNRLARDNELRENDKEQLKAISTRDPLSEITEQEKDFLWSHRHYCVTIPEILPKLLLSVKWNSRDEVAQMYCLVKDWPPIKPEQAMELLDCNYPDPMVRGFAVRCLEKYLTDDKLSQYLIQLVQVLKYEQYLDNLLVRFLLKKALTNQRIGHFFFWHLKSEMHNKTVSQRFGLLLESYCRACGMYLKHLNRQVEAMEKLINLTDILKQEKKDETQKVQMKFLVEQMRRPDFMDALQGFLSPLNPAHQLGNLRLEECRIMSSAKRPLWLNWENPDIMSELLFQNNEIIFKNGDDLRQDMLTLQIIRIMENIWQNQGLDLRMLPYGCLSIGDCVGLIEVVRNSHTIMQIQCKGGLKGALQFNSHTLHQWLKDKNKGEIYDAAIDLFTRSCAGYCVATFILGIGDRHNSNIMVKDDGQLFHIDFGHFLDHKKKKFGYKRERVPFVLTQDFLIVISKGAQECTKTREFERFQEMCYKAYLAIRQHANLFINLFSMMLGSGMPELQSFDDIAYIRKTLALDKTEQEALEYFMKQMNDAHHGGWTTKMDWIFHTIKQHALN
# Chain of UniProt P53350 (whole entry, looked up): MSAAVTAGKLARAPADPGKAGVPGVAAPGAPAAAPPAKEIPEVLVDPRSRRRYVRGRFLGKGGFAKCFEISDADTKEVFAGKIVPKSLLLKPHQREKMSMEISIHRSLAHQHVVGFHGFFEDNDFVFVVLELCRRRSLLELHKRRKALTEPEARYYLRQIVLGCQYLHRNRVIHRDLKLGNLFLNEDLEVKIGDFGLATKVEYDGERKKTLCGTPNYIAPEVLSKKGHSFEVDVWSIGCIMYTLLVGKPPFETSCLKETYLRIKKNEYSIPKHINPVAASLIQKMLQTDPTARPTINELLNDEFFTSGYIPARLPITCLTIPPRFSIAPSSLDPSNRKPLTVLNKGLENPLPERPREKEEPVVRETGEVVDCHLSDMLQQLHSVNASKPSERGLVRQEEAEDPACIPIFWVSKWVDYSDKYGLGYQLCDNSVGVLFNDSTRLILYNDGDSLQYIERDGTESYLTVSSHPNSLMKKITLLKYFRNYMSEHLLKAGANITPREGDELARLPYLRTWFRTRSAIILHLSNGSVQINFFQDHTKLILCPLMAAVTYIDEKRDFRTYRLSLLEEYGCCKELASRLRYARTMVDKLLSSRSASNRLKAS

# Set 1
# Target: Calcium/calmodulin-dependent protein kinase type II subunit alpha (CAMK2A, Homo sapiens, UniProt Q9UQM7)
# Chain of UniProt Q9UQM7 (whole entry, looked up): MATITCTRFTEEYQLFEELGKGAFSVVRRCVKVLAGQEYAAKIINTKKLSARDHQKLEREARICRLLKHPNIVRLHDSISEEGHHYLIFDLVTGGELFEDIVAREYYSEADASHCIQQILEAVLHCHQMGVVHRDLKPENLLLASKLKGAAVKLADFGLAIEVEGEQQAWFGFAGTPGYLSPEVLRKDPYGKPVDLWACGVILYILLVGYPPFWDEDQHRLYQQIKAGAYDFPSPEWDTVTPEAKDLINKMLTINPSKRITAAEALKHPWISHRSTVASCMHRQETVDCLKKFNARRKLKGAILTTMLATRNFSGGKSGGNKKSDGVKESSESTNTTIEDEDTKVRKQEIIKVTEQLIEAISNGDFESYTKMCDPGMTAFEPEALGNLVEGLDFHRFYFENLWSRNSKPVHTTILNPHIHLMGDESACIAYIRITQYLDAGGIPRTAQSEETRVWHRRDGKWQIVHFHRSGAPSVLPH
# Observed: enzyme activity
# Action: inhibitor
# Tested at: 10 µM
SMILES,inhibition [%]
N=C(N)NCCN1CCCCCCC1,-16
O=c1c(-c2ccc(O)cc2)coc2cc(O[C@@H]3O[C@H](CO)[C@@H](O)[C@H](O)[C@H]3O)ccc12,16
O=C(O[C@@H]1[C@@H](O)[C@H](Oc2cc(O)c(C(=O)CCc3ccccc3)c(O)c2)O[C@@H]2COC(=O)c3cc(O)c(O)c(O)c3-c3c(cc(O)c(O)c3O)C(=O)O[C@@H]12)c1cc(O)c(O)c(O)c1,62
CN1C(C(=O)Nc2ccccn2)=C(O)c2ccccc2S1(=O)=O,2
CC(C)OC(=O)C(C(=O)OC(C)C)=C1SC=CS1,4
O=c1[nH]cnc2c1ncn2[C@H]1C[C@H](O)[C@@H](CO)O1,5
C[C@@H]1O[C@@H](c2c(O)c([C@@H]3O[C@H](CO)[C@@H](O)[C@H](O)[C@H]3O)c(O)c3c(=O)cc(-c4ccc(O)cc4)oc23)[C@H](O)[C@H](O)[C@H]1O,-61
CC(C)(O)[C@@H]1CC[C@](C)([C@H]2[C@@H](O)C[C@@]3(C)[C@@H]4C[C@H](O)[C@H]5C(C)(C)[C@@H](O[C@@H]6OC[C@@H](O)[C@H](O)[C@H]6O[C@@H]6O[C@H](CO)[C@@H](O)[C@H](O)[C@H]6O)CC[C@@]56C[C@@]46CC[C@]23C)O1,-17
CCCCCCCCN=c1ccn(CCCCCCCCCCn2ccc(=NCCCCCCCC)cc2)cc1,32
CC(C)c1nc(CN(C)C(=O)N[C@@H](CCN2CCOCC2)C(=O)N[C@H](CC[C@H](Cc2ccccc2)NC(=O)OCc2cncs2)Cc2ccccc2)cs1,5
O=C(O)CCc1ccc(O)c(O)c1,-45
CCCCCC/C=C\CCCC(=O)O,-11

# Set 2
# Target: Wee1-like protein kinase (WEE1, Homo sapiens, UniProt P30291)
# Chain of UniProt P30291 (whole entry, looked up): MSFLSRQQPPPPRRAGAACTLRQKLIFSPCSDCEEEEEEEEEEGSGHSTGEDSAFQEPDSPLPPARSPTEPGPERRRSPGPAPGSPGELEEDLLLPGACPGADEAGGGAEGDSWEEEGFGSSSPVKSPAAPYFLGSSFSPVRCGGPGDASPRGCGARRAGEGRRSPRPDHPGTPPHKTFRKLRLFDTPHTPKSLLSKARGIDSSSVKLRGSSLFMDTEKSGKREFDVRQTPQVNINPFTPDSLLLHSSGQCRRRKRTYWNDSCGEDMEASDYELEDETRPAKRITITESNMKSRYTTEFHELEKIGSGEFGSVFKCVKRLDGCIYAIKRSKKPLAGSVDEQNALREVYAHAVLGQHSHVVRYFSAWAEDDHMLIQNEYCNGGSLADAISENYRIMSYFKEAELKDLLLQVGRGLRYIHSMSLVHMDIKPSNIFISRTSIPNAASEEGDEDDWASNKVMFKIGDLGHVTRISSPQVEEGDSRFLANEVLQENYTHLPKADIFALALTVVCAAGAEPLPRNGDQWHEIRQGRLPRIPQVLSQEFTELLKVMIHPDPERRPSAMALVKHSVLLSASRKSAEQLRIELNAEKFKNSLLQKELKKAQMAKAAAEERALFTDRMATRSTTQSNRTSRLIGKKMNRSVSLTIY
# Observed: enzyme activity
# Action: inhibitor
# Tested at: 0.5 µM
# Reference: control
Structure (SMILES),remaining activity [%]
c1ccc(-c2cnc(Nc3ccc(OCCN4CCCC4)cc3)s2)cc1,92
Ic1cccc(CSc2nnc(-c3ccncc3)o2)c1,97.2
CCN(CC)CCNC(=O)c1c(C)[nH]c(/C=C2\C(=O)Nc3ccc(Cl)cc32)c1C,94.8
O=c1cc(-c2cccc3c2Sc2ccccc2S3)oc(N2CCOCC2)c1,98.3
Cn1nc2c3c(cccc31)C(=O)c1ccccc1-2,92.3
COc1cc2ncnc(Nc3cccc(Cl)c3)c2cc1OC,92.4
COc1cc2c(cc1OC)-c1[nH]nc(Nc3cccc(F)c3)c1C2,93
Cc1cc2ncc(-c3ccccc3)nc2cc1C,105
CN(C)C[C@H]1CCn2c(c(C3=C(c4cn(C)c5ccccc45)C(=O)NC3=O)c3ccccc32)C1,101
CCOc1nc(NC(=O)Cc2cc(OC)ccc2OC)cc(N)c1C#N,88.1
Nc1cccc(-c2cc3c(Oc4cccc(O)c4)ncnc3[nH]2)c1,85.5
N#Cc1c(NC(=O)c2cccc3ccccc23)sc2c1CCCC2,88.9
N#C/C(=C\c1ccc(O)c(O)c1)C(=O)NCc1ccccc1,89.9
C[C@@H]1CCN(C(=O)CC#N)C[C@@H]1N(C)c1ncnc2[nH]ccc12,97.7
c1ccc(-c2[nH]ncc2-c2ccnc3ccccc23)nc1,91.1
O=C1C(Cl)=C(N2C(=O)CCC2=O)C(=O)c2ccccc21,93
CCN(CC)CCNC(=O)c1c(C)[nH]c(/C=C2\C(=O)Nc3ccc(F)cc32)c1C,91.8
COc1cc2ncnc(Nc3ccc(O)c(Br)c3)c2cc1OC,92.5
CN([C@@H](Cc1ccc(OS(=O)(=O)c2cccc3cnccc23)cc1)C(=O)N1CCN(c2ccccc2)CC1)S(=O)(=O)c1cccc2cnccc12,87.7
O=C1c2ccccc2-c2n[nH]c3cccc1c23,91.3
Cc1nc2cc3nc(-c4cccs4)cnc3cc2n1C,86.9
O=C(NC(NC(=S)Nc1ccc(F)c([N+](=O)[O-])c1)C(Cl)(Cl)Cl)C(c1ccccc1)c1ccccc1 (stereo not drawn),91.8
O=C(Nc1cccc(Nc2nccc(Nc3cccc(C(F)(F)F)c3)n2)c1)C1CC1,95.6
CCN(CC)C(=O)c1ccc(Nc2nc(OCC3CCCCC3)c3[nH]cnc3n2)cc1,110
Cc1cn(-c2cc(NC(=O)c3ccc(C)c(Nc4nccc(-c5cccnc5)n4)c3)cc(C(F)(F)F)c2)cn1,99

# Set 3
# Cell line: mouse MPNST tumor cells
# Method: high-content nuclear imaging
# Measured: cell number
# Tested at: 10 µM
# Time: 12 h
# Notes: mean of 2 replicates
# Reference: plate mean
# Reading: higher = more cells
Compound,nuclei count
CCCc1nc2c(C)cc(-c3nc4ccccc4n3C)cc2n1Cc1ccc(-c2ccccc2C(=O)O)cc1,1.81 z-score and -0.689 z-score
COc1cc(N2CCOCC2)ccc1Nc1ncc(F)c(Nc2ccccc2NS(C)(=O)=O)n1,1.63 z-score
CN(C)CCCN1c2ccccc2CCc2ccc(Cl)cc21,-6.2 z-score
CCOCCn1c(N2CCCN(C)CC2)nc2ccccc21,0.327 z-score
CCC(=O)O[C@]1(C(=O)SCF)[C@H](C)C[C@H]2[C@@H]3C[C@H](F)C4=CC(=O)C=C[C@]4(C)[C@@]3(F)[C@@H](O)C[C@@]21C,4.12 z-score and 2.2 z-score
O=C(Cc1ccccc1)Nc1nc2ccc(Cl)cc2c2nc(-c3ccco3)nn12,1.68 z-score
CCC(=O)c1cc(-c2ccc(Cl)cc2)n(-c2ccc(S(N)(=O)=O)cc2)c1C,4.56 z-score
OC(c1ccccc1)C1CCN(CCc2ccccc2)CC1 (stereo not drawn),-0.279 z-score
CC(C)NCCN(C(C)C)S(=O)(=O)c1ccc(Cl)cc1Cl,2.9 z-score
CCS(=O)(=O)CCn1c([N+](=O)[O-])cnc1C,1.93 z-score and 0.798 z-score
CC(=O)[C@@]1(O)CC[C@H]2[C@@H]3C[C@H](C)C4=CC(=O)C=C[C@]4(C)[C@@]3(F)[C@@H](O)C[C@@]21C,5.93 z-score
COc1c(N2CCNC(C)C2)c(F)cc2c(=O)c(C(=O)O)cn(C3CC3)c12 (stereo not drawn),0.967 z-score
CCOC(=O)c1ncn2c1CN(C)C(=O)c1cc(F)ccc1-2,1.52 z-score and 1.99 z-score
CC(C)(C)c1ccc(-c2nc3c(N4CCN(Cc5ccc6nccnc6c5)CC4)cccc3[nH]2)cc1,3.38 z-score
O=C(OC(C(F)(F)F)C(F)(F)F)N1CCN(Cc2cccc(Oc3ccccc3)c2)CC1,2.14 z-score

# Set 4
# SMILES: C[C@H](c1ccnc(Nc2nc3ccc(-c4cc(N(C)C)ncn4)cc3[nH]2)c1)N1CCN(C(=O)CC(F)(F)F)CC1
# Tested at: 0.1 µM
target,assay,remaining binding
"Serine/threonine-protein kinase SBK1 (SBK1, Homo sapiens, UniProt Q52WX2)","cell-free assay, competition with immobilised ligand",85%
"Ribosomal protein S6 kinase alpha-1, N-terminal kinase domain (RPS6KA1, Homo sapiens, UniProt Q15418)","cell-free assay, competition with immobilised ligand",100%
"Myosin light chain kinase (MYLK3, Homo sapiens, UniProt Q32MK0)","cell-free assay, competition with immobilised ligand",100%
"Tyrosine-protein kinase receptor TYRO3 (TYRO3, Homo sapiens, UniProt Q06418)","cell-free assay, competition with immobilised ligand",96%
"Serine/threonine-protein kinase MRCK gamma (CDC42BPG, Homo sapiens, UniProt Q6DT37)",competition binding,79%
"Serine/threonine-protein kinase 36 (STK36, Homo sapiens, UniProt Q9NRP7)","cell-free assay, competition with immobilised ligand",97%
"5'-AMP-activated protein kinase catalytic subunit alpha-1 (PRKAA1, Homo sapiens, UniProt Q13131)","cell-free assay, competition with immobilised ligand",100%
"Phosphatidylinositol 4,5-bisphosphate 3-kinase catalytic subunit alpha isoform (PIK3CA, Homo sapiens, UniProt P42336)","cell-free assay, competition with immobilised ligand",100%
"Mitogen-activated protein kinase kinase kinase 20 (MAP3K20, Homo sapiens, UniProt Q9NYL2)","cell-free assay, competition with immobilised ligand",98%
"Bone morphogenetic protein receptor type-2 (BMPR2, Homo sapiens, UniProt Q13873)","cell-free assay, competition with immobilised ligand",100%
"Myosin-IIIa (MYO3A, Homo sapiens, UniProt Q8NEV4)","binding, competition with immobilised ligand",100%
"Megakaryocyte-associated tyrosine-protein kinase (MATK, Homo sapiens, UniProt P42679)","cell-free assay, competition with immobilised ligand",95%
"Serine/threonine-protein kinase PLK1 (PLK1, Homo sapiens, UniProt P53350)","cell-free assay, competition with immobilised ligand",100%
"Serine/threonine-protein kinase WNK1 (WNK1, Homo sapiens, UniProt Q9H4A3)","cell-free assay, competition with immobilised ligand",100%
"Mitogen-activated protein kinase kinase kinase kinase 5 (MAP4K5, Homo sapiens, UniProt Q9Y4K4)","cell-free assay, competition with immobilised ligand",96%
"Dual specificity mitogen-activated protein kinase kinase 2 (MAP2K2, Homo sapiens, UniProt P36507)","cell-free assay, competition with immobilised ligand",100%
"Epidermal growth factor receptor (EGFR, Homo sapiens, UniProt P00533, del752-759)","cell-free assay, competition with immobilised ligand",96%
"Protein kinase C epsilon type (PRKCE, Homo sapiens, UniProt Q02156)","cell-free assay, competition with immobilised ligand",96%
"Serine/threonine-protein kinase PAK 5 (PAK5, Homo sapiens, UniProt Q9P286)","cell-free assay, competition with immobilised ligand",100%
"Non-receptor tyrosine-protein kinase TYK2, JH1 (TYK2, Homo sapiens, UniProt P29597)","cell-free assay, competition with immobilised ligand",100%
"Phosphorylase b kinase gamma catalytic chain, skeletal muscle/heart isoform (PHKG1, Homo sapiens, UniProt Q16816)","cell-free assay, competition with immobilised ligand",100%
"Ribosomal protein S6 kinase alpha-5, N-terminal kinase domain (RPS6KA5, Homo sapiens, UniProt O75582)","cell-free assay, competition with immobilised ligand",88%
"RAC-beta serine/threonine-protein kinase (AKT2, Homo sapiens, UniProt P31751)","cell-free assay, competition with immobilised ligand",100%

# Some of these lines once more (set 3):
Compound,nuclei count
COc1cc(N2CCOCC2)ccc1Nc1ncc(F)c(Nc2ccccc2NS(C)(=O)=O)n1,1.63 z-score
CN(C)CCCN1c2ccccc2CCc2ccc(Cl)cc21,-6.2 z-score
CCOCCn1c(N2CCCN(C)CC2)nc2ccccc21,0.327 z-score
CCC(=O)O[C@]1(C(=O)SCF)[C@H](C)C[C@H]2[C@@H]3C[C@H](F)C4=CC(=O)C=C[C@]4(C)[C@@]3(F)[C@@H](O)C[C@@]21C,4.12 z-score and 2.2 z-score
O=C(Cc1ccccc1)Nc1nc2ccc(Cl)cc2c2nc(-c3ccco3)nn12,1.68 z-score
CCC(=O)c1cc(-c2ccc(Cl)cc2)n(-c2ccc(S(N)(=O)=O)cc2)c1C,4.56 z-score
